Measurements from different studies.
A part holds a random share of what one study measured. Changes are numbered by the printed parent chain.

Sample 1
Target: Histone acetyltransferase KAT6A, winged helix 1, GST fusion (KAT6A, Homo sapiens, UniProt Q92794, residues 1-85)
Method: protein binding microarray
Form: double-stranded DNA, one strand shown
Matrix: in vitro
Tested at: not given
Notes: 8-mer, flanks averaged, mean of 2 arrays, mostly near background
Reference: not given
Reading: higher = stronger binding
Construct (chain): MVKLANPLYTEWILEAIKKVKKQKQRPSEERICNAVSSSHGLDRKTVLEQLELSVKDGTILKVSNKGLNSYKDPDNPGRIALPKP
For `CCGTCGGC`, the E-score was 0.493.
For `CCCAGTAG`, the E-score was -0.132.
With `AAACCAAC` the E-score was -0.07.
`AAGTGTGT` has an E-score of -0.135.
`AACTGGTC` gave an E-score of -0.0231.
The E-score of `AACGCAGT` is reported as 0.0265.
For `AACTACCA`, the E-score was -0.226.
The E-score of `ACTCACGG` is reported as 0.304.

Sample 2
Target: CCNE1, cyclin fold, Cln2 fusion (human)
Method: yeast growth competition, sequencing
Matrix: yeast
Notes: weak parent motif
Reference: not given
Reading: higher = stronger binding
Starting sequence: SLBP docking peptide (human); ARYKRKLLINDFG
`G13A` — result for “normalised enrichment score”: 0.047.
Under “normalised enrichment score”, `A1P` is recorded as 0.152.
`Y3M` — result for “normalised enrichment score”: 0.978.
`K4P`: “normalised enrichment score” -0.383.
For `F12C`, “normalised enrichment score” read 0.459.

Sample 3
Target: RNA binding protein fox-1 homolog 2, RRM domain, GST-SBP tag (RBFOX2, Homo sapiens, UniProt O43251-10, residues 100-194)
Method: RNA Bind-n-Seq
Form: RNA
Matrix: in vitro
Tested at: 365 nM
Notes: natural RNA segment, single round, ends assumed
Reference: no-protein control
Reading: higher = stronger binding
Constant ends, left off below: GGGAGUUCUACAGUCCGACGAUC … UGGAAUUCUCGGGUGCCAA
Residues (chain): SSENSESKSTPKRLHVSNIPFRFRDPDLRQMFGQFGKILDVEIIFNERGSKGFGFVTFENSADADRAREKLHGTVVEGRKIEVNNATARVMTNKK
`CAGGCGGAUCACCUGAGGCCAGGAAUUCAAGACCAGCCUGGCCAACAUGGUGAAACCCUAUCUCCACUAAAAAUACAAAAUUAGCUGGGUGUGGUGGCGCAUGCCUGUAA` — result for “RBNS enrichment (R)”: 0.811.
`UUUUAACCAACUGUGCCUCCCUACAUAUGACUCAUAUGAAGAGGUGCACAGGAUGCUACAGCUGGCCAUCAGUGAGGGUUGCGAGGGCUUUGGCAUGCUCUGACCGCUCC` — result for “RBNS enrichment (R)”: 2.36.
`CAUCAUUUGGGGUCGUAUGUUUUAAAGAGUAAAGGAGACGGUGAAGGGAUGUCAGCUAGAGUGUAGAGCCAGGGAGAGACAGCCAGGGAUUCUCGCCUAGCUGAACCAAG` — result for “RBNS enrichment (R)”: 0.844.
For `ACCUAACUCAUCGUGUUUGCAUUCUUGUUAAGUUUUUUUGGCUUUGGAAUGUGACACAGCCUUUUUGAUCAUUUCUUUGAUGUGAAAAGCAUCUUUUGGUUAUCAGUUAA`, “RBNS enrichment (R)” read 0.45.
Under “RBNS enrichment (R)”, `GAUGCCAAUGGCUUGAAUUGAGUUCUUUUCAAGAACUGAUAGACUAUUUGGUAUGAAGUAGCAAAGCUACCUAGGAAGGUUAAAAAAUUAUGUACAUCAAAGAUAUCCUA` is recorded as 0.309.

Further values, each from its own experiment
The fold induction of `PhoQ, residues 284 288 289 292 302 303 SMMNNA` is reported as 11.7 (PhoP, residues 12 14 15 18 19 LHTVM (Escherichia coli, UniProt P23836); Sort-seq, refers to: YFP reporter; E. coli; PhoQ-PhoP variant library, added: 10 µM Mg2+; reference: high Mg2+ state, higher = stronger signaling).

Some of these lines once more (sample 1):
`AAGTGTGT` has an E-score of -0.135.
